Experimental data pooled from the literature.
A part holds a random share of what one study measured.

Set 1 — technique: universal PBM; molecule type: double-stranded DNA, one strand shown; matrix: in vitro; tested at: 600 nM; direction: higher = stronger binding
Target: Sal-like protein 4, full length isoform A (SALL4, Homo sapiens, UniProt Q9UJQ4, residues 1-1053)
UniProt Q9UJQ4, sequence (whole entry, looked up): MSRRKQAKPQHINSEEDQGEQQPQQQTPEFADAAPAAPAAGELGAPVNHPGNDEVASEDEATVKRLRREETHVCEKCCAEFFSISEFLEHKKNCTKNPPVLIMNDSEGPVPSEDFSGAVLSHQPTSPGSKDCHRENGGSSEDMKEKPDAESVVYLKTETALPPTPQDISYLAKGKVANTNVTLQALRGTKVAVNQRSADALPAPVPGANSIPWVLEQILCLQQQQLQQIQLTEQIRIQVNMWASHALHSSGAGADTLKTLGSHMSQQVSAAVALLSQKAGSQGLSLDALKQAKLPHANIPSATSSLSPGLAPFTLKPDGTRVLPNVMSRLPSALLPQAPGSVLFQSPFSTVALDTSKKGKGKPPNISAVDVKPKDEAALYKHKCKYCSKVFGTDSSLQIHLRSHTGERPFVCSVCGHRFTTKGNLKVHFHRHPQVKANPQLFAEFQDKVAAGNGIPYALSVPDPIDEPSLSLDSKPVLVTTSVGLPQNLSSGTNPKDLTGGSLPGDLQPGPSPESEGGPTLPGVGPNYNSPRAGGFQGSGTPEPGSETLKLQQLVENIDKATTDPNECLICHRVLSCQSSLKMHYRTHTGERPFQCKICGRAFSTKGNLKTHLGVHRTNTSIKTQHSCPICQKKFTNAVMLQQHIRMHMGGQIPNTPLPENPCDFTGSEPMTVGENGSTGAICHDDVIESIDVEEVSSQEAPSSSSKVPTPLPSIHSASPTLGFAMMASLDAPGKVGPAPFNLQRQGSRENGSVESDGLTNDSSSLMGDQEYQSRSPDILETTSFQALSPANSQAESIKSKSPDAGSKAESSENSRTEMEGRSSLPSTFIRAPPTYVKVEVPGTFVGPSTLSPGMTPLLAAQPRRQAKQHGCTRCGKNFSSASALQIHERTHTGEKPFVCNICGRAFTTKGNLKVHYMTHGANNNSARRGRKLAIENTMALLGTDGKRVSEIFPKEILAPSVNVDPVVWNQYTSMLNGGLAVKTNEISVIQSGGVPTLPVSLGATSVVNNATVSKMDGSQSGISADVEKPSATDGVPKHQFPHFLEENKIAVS
Setting: 8-mer, flanks averaged, mean of replicates
| Oligonucleotide | E-score |
| --- | --- |
| TACGGGCA | -0.132 |
| ACGCATTC | 0.0121 |
| GAATTGGC | -0.0584 |
| GCCTATCC | -0.181 |
| CGTGCCGC | -0.328 |
| GGTCCTAC | -0.242 |
| TAATCGTA | 0.25 |
| CTCATGGA | 0.0202 |
| CTTAAGCC | -0.0691 |
| GGTAGAAC | -0.117 |
| AAATTAAT | 0.43 |
| ATGTTACA | 0.253 |
| CAAAAGAC | 0.152 |
| GAAAAGAA | 0.0836 |
| CTAGTATC | 0.031 |
| ATTAGTCC | 0.186 |

Set 2 — technique: RNA Bind-n-Seq; molecule type: RNA; matrix: in vitro; tested at: not given; setting: RNA with constant flanks, ends assumed; relative to: input RNA pool; direction: higher = stronger binding
Target: RING finger protein unkempt homolog, zinc fingers 1-6, GST-SBP tag (UNK, Homo sapiens, UniProt Q9C0B0, residues 30-357)
Target sequence (chain): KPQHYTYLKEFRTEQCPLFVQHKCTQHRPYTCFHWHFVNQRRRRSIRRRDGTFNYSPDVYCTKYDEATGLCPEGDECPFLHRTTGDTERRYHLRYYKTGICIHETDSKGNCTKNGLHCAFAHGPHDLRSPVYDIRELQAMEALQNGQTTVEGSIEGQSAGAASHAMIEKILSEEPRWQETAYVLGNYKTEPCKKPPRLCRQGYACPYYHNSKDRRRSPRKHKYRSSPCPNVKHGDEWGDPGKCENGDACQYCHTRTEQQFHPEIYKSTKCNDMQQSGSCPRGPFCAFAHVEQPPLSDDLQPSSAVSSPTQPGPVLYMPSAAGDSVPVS
| Oligonucleotide | bound/input enrichment [ratio] |
| --- | --- |
| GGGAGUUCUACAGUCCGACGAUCACAAUUGGUUUUAACGUGGAAACUGUAGAAUAUAAAAAUCUAAAAUUCACUAUUUGGGAUGCCGGUGGAAAACACAAAUUAAGACCAUUGUGGAAACAUUAUUACCUCAAUACUCAAGCUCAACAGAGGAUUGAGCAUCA | 0.261 |
| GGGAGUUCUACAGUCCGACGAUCCCCGUGUAAACAUUCUUUUUCCAAGGGGGAAAAUGGUGUUAUUUACAUGAAUCGUGAUCAAACCGCCUCUAAAAACAGUUUUCUAAGCAGGAGGCUCAGUGGAACUCCGAGCUCCGCUCCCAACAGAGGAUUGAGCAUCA | 0.17 |
| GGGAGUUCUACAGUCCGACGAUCUGUUGUGACCCAUUUAACAUACACAAGAAAUUAGCCAAAAAAAAUUUGCAUGUAAUUGACUCCGAUGAUGCCACUUUUCUGAGUGCUAAAUUUGGAAGACAGCUUGUACCUGGUUGGAAGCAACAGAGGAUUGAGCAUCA | 2.61 |
| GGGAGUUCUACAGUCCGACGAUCGGGCCUUGGAAGCUGACGGCGUCCAAGACCCACAUCAUGAAGUCUGCGGAUGUGGAAAAGUCCGCUGACGAGCUGCACAUGCCAUCCCUCCCUGAAAUGAUGUUUGGAGACAACGUUCUACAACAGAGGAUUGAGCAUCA | 0.0602 |
| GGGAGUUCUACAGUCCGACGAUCUUUUUAUGUAGGCGAGCUAACACAGUGUACCUAAUUGCAGAAUUAUCUGAUUAAUUUGUAACCGAUAAGUUGUAUAACAUUUUCAUAUCUUAAAAUGUUUUUUAGAUCAAUCUUGAAGUGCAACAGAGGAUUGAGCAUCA | 0.326 |
| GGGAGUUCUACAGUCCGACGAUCCCUCUUUUCCAGUCCCAUGUUGAAGAUCUUUACGUAGAAGGGCUUCCUGAAGGGAUUCCUUUCCGAAGGCCGUCGACGUACGGCAUUCCUCGCCUUGAGAGGAUAUUGCUGGCGAAGGAACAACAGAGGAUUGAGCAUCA | 0.13 |
| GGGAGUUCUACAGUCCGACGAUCUCCCCUUAUGACCAGGCAGCUUGGAUCUUAAAAGCAAGAGCGCUAACAGAAAUGGUAUACACCGAUGAAAUUGAUGUAGAUCAGGAAGGAAUUGCAGAAAUGAUGCUGGAUGAAAAUGCUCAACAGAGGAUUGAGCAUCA | 0.262 |
| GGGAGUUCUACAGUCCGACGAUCAAUAUCAGUGUUGGACGUUAAUGCCCACUUUUCUUAUUCUUACUCAGCCCCUUUUCCUCCCUCCGGAGCAUUGGUCCUCUGUUGUCCAUUUUUAUCACCAGAUGUUUUCCACUGAAGCAUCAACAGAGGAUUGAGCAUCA | 1.5 |
| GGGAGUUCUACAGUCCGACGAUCGCGGUCCCUACAGUCCUGGUGACUCCCUUAGGUGCCCUUGGAGUACCGUUUGGGUCCAUUUCCGCUUCUUACCUUCUGAAGGAAAAGCUCAACAUCUUGGGCAAGUUGGGCUGUCUGCUACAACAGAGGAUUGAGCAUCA | 0.581 |
| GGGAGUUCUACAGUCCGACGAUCUGUAUGGUAACUAAAGGUGCCAGCAUGUUGACUUUAUUACAAUUUGUAUUACUUCCUCUGCCGUUCCUAAUGGACUCAAUCACAGACUCUGGAUAUUUGCACUUAUGUACUUGAUACUGACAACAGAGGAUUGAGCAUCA | 0.188 |
| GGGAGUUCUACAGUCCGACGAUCCCCUCCGCUGGGAACGAUGGCUUCUGCCUAGUACCUAUCCUUGUGUUUCUGAUGCAGUGGCCGCAUUGGUUCAAGUUCUCUCCUGCUGUGGUCAGAGUUGCUUCGAUGUUGGCCAAGUGCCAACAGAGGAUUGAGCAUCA | 0.446 |

Set 3 — cell line: yeast with cyclin E2-Cln2 chimera; read-out: cell growth; mode: binder; technique: competitive growth deep sequencing; molecule type: peptide; tested at: concentration not given; setting: peptide tiling library; direction: direction not given
| Sequence | growth enrichment score |
| --- | --- |
| IVLICAKRSLCAAFSV | 0.296 |
| IPDRSTKPVVFSPT | -0.527 |
| GQLVIPLDELTLDTSF | 0.664 |
| ESSQLTVQAEFDMSAI | 0.127 |
| LRRQLSFSED | 0.292 |
| TARRIFQEPTEPKTKA | 0.976 |
| PAKRRLELGE | 1.15 |
| PLRKAKRARLCSSSSS | 0.362 |
| SAVPLILPQAPSGPSY | 1.38 |
| PARRRLRLSVDEVSSP | 0.0309 |
| SSEVARHLLFQSHM | -0.118 |
| RKLHFEDEVT | 0.603 |
| DTERAHSTLDEDLERW | 1.04 |
| FREFEVEKQTAEETGL | 1.22 |
| EPRNLLSLFEDTLDPT | 0.168 |
| NARRSLNFGGSTGT | 0.658 |
| SCCKRKLVVGNGPEGP | 0.26 |
| RRVLCFDS | 1.38 |
| DSDSDSEGGAAGGEAD | 1.33 |
| AIRKMREDRWAVIAKM | 1.19 |
| ALTMEALEDPSPELME | 1.2 |
| KRCATPVIIDEILPSK | 0.336 |
| KPITLDTTDFQESFVT | 0.513 |

Set 4 — technique: protein binding microarray; molecule type: double-stranded DNA, one strand shown; matrix: in vitro; tested at: not given; relative to: not given; direction: higher = stronger binding
Target: Histone acetyltransferase KAT6A, both winged helices, GST fusion (KAT6A, Homo sapiens, UniProt Q92794, residues 1-181)
Setting: 8-mer, flanks averaged, mean of 2 arrays, mostly near background
Construct (chain): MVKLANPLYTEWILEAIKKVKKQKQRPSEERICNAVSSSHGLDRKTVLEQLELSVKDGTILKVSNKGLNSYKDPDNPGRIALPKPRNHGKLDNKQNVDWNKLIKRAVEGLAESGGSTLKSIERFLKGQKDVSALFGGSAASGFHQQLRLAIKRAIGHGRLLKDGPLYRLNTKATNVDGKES
| Oligonucleotide | E-score |
| --- | --- |
| AACGGCTT | 0.205 |
| CAACCTTA | -0.095 |
| CCCGTTCC | 0.11 |
| ACGACCGA | -0.0562 |
| GCGGCGTA | 0.306 |
| AATAGGAC | -0.0999 |
| ACTACCAA | -0.0541 |
| ACTGTCGA | -0.117 |
| GTTGAGTA | 0.0073 |
| GCTTGAAA | -0.125 |
| AGTATCAG | -0.167 |
| CTTTAAAC | -0.209 |
| GGTAGGAC | -0.0396 |
| ATAAGTCC | -0.136 |
| CAGCAGCC | -0.15 |
| AAAAGGGG | -0.159 |
| GTTTAGCA | -0.0199 |
| CGGATTCC | 0.164 |
| TTCGCGAA | 0.205 |
| CCTAGACG | 0.0122 |
| ACTCGGGC | 0.0463 |
| AACAGACT | -0.0755 |
| ATAACACA | -0.13 |
| ATCATTAA | 0.0374 |

Set 5 — technique: RNA Bind-n-Seq; molecule type: RNA; matrix: in vitro; tested at: 365 nM; relative to: no-protein control; direction: higher = stronger binding
Target: RNA binding protein fox-1 homolog 2, RRM domain, GST-SBP tag (RBFOX2, Homo sapiens, UniProt O43251-10, residues 100-194)
Setting: natural RNA segment, single round, ends assumed
| Oligonucleotide | RBNS enrichment (R) |
| --- | --- |
| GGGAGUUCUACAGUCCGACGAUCCCUCCCUUCUCUUGUUUCUUUUAUUUAUAAGUUACCAUUCCUAGUUUCUUUGUACUUGAAAUUUUAAGAAACCAGAAACAAGUAAAUCUGGUUGUAUCUAGAUCUUUGCUUGGAAUUCUCGGGUGCCAA | 0.638 |
| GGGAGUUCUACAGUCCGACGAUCCGCCCCCGCCCUCGCUCCGGGUGCGUGACCGGCCCGCCACCUUGUACAGAACCAGCACUCCCAGGGCCCGAGCGCGUGCCUUCCCCGUGCGGCCCGUGCGCAGCCGCGCUUGGAAUUCUCGGGUGCCAA | 0.55 |
| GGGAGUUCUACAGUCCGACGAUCGGAGAAGCAGUGCCUGCCAGCUGUGGUGGACCUUCCUAAGAAAUAAAUAUCCUUUAUGUUUUCAAACAUCCUGUCUGAGGUCUGCUGAUUACACUGUCUCUGAAAAAUCAUGGAAUUCUCGGGUGCCAA | 1.49 |
| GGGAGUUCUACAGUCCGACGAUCGUCCACUUCUGAAACUCCUGUUCCUAAUGACAAAGUGGCUAUGUGCAAUGGAUAUAAAUGUACUGUGAGUCUCUCGGUUCAGUAUUAGGUUCACUUUAAUUUAUUUAUGCUGGAAUUCUCGGGUGCCAA | 0.719 |
| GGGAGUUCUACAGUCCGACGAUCUCUGACCUCAUGCUGCACACACUGUGGAAUUUCUUCAAGGAAGCUGUAGGUCGGUGCAGGAUCCCCAGAAGUGCAGGUCUCUCCAGUCUGCAGUUUGCCAACUUGUCUGCUGGAAUUCUCGGGUGCCAA | 1 |
| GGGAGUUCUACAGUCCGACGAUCAUGUUCUUGGAUAUGUAAGUGCCAAUACCAGUGUGAAGUAUUGAUCCCGGGCAGCAAAAUACAGCCUAAGGUUUGUAAACAUCAAUUCUAUCUCAGUUCAUCAGAGGGCCUGGAAUUCUCGGGUGCCAA | 0.613 |
| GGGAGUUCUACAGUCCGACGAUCCCAUGUUCAGAUGUAUGGUGGAUGUUACUGUCACAAUAAAGUUCAAAGUGGCCAGUGCCCAUCAGAGAGCAGUGUUGUCAUUGAACUUGGCCUCUACCUGGGGGUAUAUGUGGAAUUCUCGGGUGCCAA | 0.473 |
| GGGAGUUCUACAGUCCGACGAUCUACUUGAUCCUCCUGAAAUGAGAGAUUUUCCUGAGAUGACUGAGUAUGGAGAUUACCAGGCAGAUGAUACCGAAAUGCUUAAAGGGGCUGUGGCUGAGGCUGUAGCAUCUUGGAAUUCUCGGGUGCCAA | 0.734 |
| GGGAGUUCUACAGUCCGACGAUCUGCUAAACCGUGGCAAUUCAUCAACGGGAAACAUUAGUGAAUUGAAGGCAUUCCUUGUUUUUAACUAAUAUUUGCACAUUUUCUUAGUCUCCUUCCUGAUGGUCGCCCGUUGGAAUUCUCGGGUGCCAA | 0.366 |
| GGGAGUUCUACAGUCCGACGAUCCCCCACCUCUGCUGCCUCCCUCUGCUGUCACCUUGCUCAGCCAUCCCGUCUUCUCCAACACCACCUCUCCAGAGGCCAAGGAGGCCUUGGAAACGAUUCCCCCAGUCAUUUGGAAUUCUCGGGUGCCAA | 0.797 |
| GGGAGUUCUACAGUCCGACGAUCUGGCAGAUGUCAGGGAGGAAUAGGGUAGCUGCUUUUCAUUCCUCCUGCUUGACAAUAAUUCCCUUCCCCCAAAAUGAGCAGUGUAGGCAAGAAAAUUCUAGCCAUGACCAUGGAAUUCUCGGGUGCCAA | 0.793 |
| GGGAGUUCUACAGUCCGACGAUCUAUGUAUAAUCUGUAUUUGAAAUCAUUUUGCAAUCUAUGGAAAUAGAGUAGCAAUUGCUAUUUCUAAAUUGUGAACUUUAAGUCAAUCUAGAUUUAUUUUGAGAAGUAAUUGGAAUUCUCGGGUGCCAA | 0.435 |

Some of these lines once more (set 3):
| Sequence | growth enrichment score |
| --- | --- |
| SCCKRKLVVGNGPEGP | 0.26 |
| KRCATPVIIDEILPSK | 0.336 |
| PLRKAKRARLCSSSSS | 0.362 |
| ESSQLTVQAEFDMSAI | 0.127 |
| SSEVARHLLFQSHM | -0.118 |
| LRRQLSFSED | 0.292 |
| GQLVIPLDELTLDTSF | 0.664 |
| AIRKMREDRWAVIAKM | 1.19 |
